Experimental data gathered from unrelated publications.
Compare with care: the assays were run in different laboratories. ± marks the error that the study gave.
LGALS3: Galectin-3 (LGALS3, Homo sapiens, UniProt P17931)
VHL with Elongin B/C: von Hippel-Lindau disease tumor suppressor, with Elongin B/C (VHL, Homo sapiens, UniProt P40337)

CCOCCNC(=O)N1CCC[C@H](c2n[nH]c(-c3ccccc3)n2)C1 — apparent Km (Aromatase (CYP19A1, Homo sapiens, UniProt P11511); enzyme activity, inhibitor, MFC to HFC conversion; 40 µM, added: MFC substrate): 75 µM
CCCN(CC(=O)N(CCC)CC(=O)N(CCC)CC(=O)N(CCC)CC(=O)N(CCC)CC(=O)N(CCC)CC(=O)N(CCC)CC(=O)N(CCC)CC(=O)N(CC(N)=O)Cc1cn(CCCNC(=O)CCCOc2cccc(-c3nc4ccc(-c5nc6ccc(N7CCN(C)CC7)cc6[nH]5)cc4[nH]3)c2)nn1)C(=O)CNCc1cn(CCCNC(=O)CCCOc2cccc(-c3nc4ccc(-c5nc6ccc(N7CCN(C)CC7)cc6[nH]5)cc4[nH]3)c2)nn1 — multivalent effect (MBNL1–r(CUG)109 complex; MBNL1 displacement; 0.65 pmol r(CUG)109; unit not given, added: yeast tRNA 3.7 µM; baseline: monomer 2 IC50 per module): < 1.8
O=C(c1cc2c(s1)CCCCC2)N1CCC(n2c(=O)[nH]c3ccccc32)CC1 — current ratio (Short transient receptor potential channel 6 (Trpc6, Mus musculus, UniProt Q61143, E672D); ion current, agonist, whole-cell patch clamp; E672D mutant; baseline: 3 µM over 1 µM): 4.8 ± 1.23
CC(C)C[C@H](NC(=O)CN)C(=O)N[C@@H](CO)C(=O)N[C@@H](Cc1ccccc1)C(=O)N[C@@H](C)C(=O)N[C@@H](Cc1ccccc1)C(=O)N1CCC[C@H]1C(=O)N[C@@H](C)C(=O)N[C@@H](CCCCN)C(=O)N[C@@H](CC(=O)O)C(=O)N[C@@H](C)C(=O)N[C@@H](CCC(=O)O)C(=O)N[C@@H](CC(N)=O)C(=O)N[C@@H](C)C(=O)N[C@@H](CO)C(=O)N[C@@H](CO)C(=O)N1CCC[C@H]1C(=O)N[C@H](C(=O)O)C(C)C — binding stoichiometry (Peptide cyclase 1 (Gypsophila vaccaria, UniProt R4P353, S562A); ITC; concentration not given, pH 8.0, 25 °C): 1
N#Cc1cnc(Nc2nc3ccccc3o2)nc1-c1ccc(Br)cc1 — maximal response (Metabotropic glutamate receptor 5 (Grm5, Rattus norvegicus, UniProt P31424); calcium mobilization, negative allosteric modulator; added: glutamate EC80; baseline: maximal glutamate response): 3.8 ± 1.2%
CC(=O)N[C@H]1[C@@H](O[C@H](C)[C@H](NC(=O)[C@@H](NC(=O)CNC(=O)[C@@H](N)Cc2c[nH]cn2)C(C)C)C(=O)N[C@@H](CO)C(=O)N[C@@H](C)C(=O)N2CCC[C@H]2C(=O)N[C@@H](CC(=O)O)C(=O)N[C@H](C(=O)N[C@@H](CCCNC(=N)N)C(=O)N2CCC[C@H]2C(=O)N[C@@H](C)C(=O)N2CCC[C@H]2C(=O)NCC(=O)N[C@@H](CO)C(N)=O)[C@@H](C)O)O[C@H](CO)[C@H](O)[C@@H]1O[C@@H]1O[C@H](CO)[C@H](O)[C@H](O)[C@H]1O — binding stoichiometry (LGALS3; isothermal titration calorimetry; concentration not given, full-length protein): 0.87
CC[C@H](C)[C@H](NC(=O)[C@@H](NC(=O)[C@H](CS)NC(=O)[C@H](CCSC)NC(C)=O)[C@@H](C)O)C(=O)N[C@@H](CC(=O)O)C(=O)N[C@@H](Cc1ccc(F)cc1)C(=O)N[C@@H](CC(=O)O)C(=O)N[C@@H](CCC(=O)O)C(=O)N[C@@H](Cc1ccc(O)cc1)C(=O)N[C@@H](CCCNC(=N)N)C(=O)N[C@@H](Cc1ccc(F)cc1)C(=O)N[C@@H](CCCNC(=N)N)C(=O)N[C@@H](CCCCN)C(=O)N[C@H](C(N)=O)[C@@H](C)O — binding affinity fold reduction (human BRCA1 BRCT K1702M; fluorescence polarization; concentration not given, FAM-labelled compound; baseline: wild-type BRCA1 BRCT, higher = weaker binding): ~6 fold
CCc1nc2cc3ccccc3cc2cc1C(=O)N1CCC[C@H]1C(=O)N[C@@H](C/C=C\C[C@H](NC(=O)[C@@H]1CCCN1C(=O)c1cc2cc3ccccc3cc2nc1CC)C(=O)N[C@@H](CCCCN)C(=O)NCCCN)C(=O)N[C@@H](CCCCN)C(=O)NCCCN — residence time ((CUG)10 RNA; SPR): 548 s
CC[C@H](C)[C@H](NC(=O)[C@H](CCCCN)NC(=O)[C@H](CCCNC(=N)N)NC(=O)[C@H](CCCNC(=N)N)NC(=O)[C@H](Cc1c[nH]c2ccccc12)NC(=O)[C@H](CC(C)C)NC(=O)[C@@H](N)CCSC)C(=O)NCC(=O)N1CCC[C@H]1C(=O)N[C@@H](CCC(N)=O)C(=O)N[C@@H](CCSC)C(=O)N[C@H](C(=O)N[C@@H](CC(C)C)C(=O)N[C@@H](CO)C(=O)N[C@@H](Cc1c[nH]cn1)C(=O)N[C@@H](C)C(=O)N[C@@H](C)C(=O)NCC(=O)O)[C@@H](C)O — activity (N-formyl peptide receptor 3 (Homo sapiens, UniProt P25089); CHO-K1; concentration not given): inactive
COC(=O)c1ccc(CNC(=O)[C@@H]2C[C@@H](O)CN2C(=O)Cc2cc(C)no2)cc1 — binding enthalpy (ΔH) (VHL with Elongin B/C; isothermal titration calorimetry; concentration not given, 25 °C): -9.99 ± 0.22 kcal/mol
[3H]C([3H])([3H])c1cnccc1CN1C[C@@H](c2cc(F)c(F)c(F)c2)CC1=O — Bmax (Synaptic vesicle glycoprotein 2A (SV2A, Homo sapiens, UniProt Q7L0J3); radioligand binding, saturation binding; human control, pooled frontal cortex P1 fraction): 16.9 pmol/mg
COc1c(F)c(F)c(C(=O)N[C@H]2[C@@H](O)[C@@H](CO)O[C@@H](S[C@@H]3O[C@H](CO)[C@H](O)[C@H](NC(=O)c4c(F)c(F)c(OC)c(F)c4F)[C@H]3O)[C@@H]2O)c(F)c1F — –TΔS (LGALS3; ITC; Kd fixed from FP): 3.82 ± 0.239 kcal/mol
CC1=C(O)C(=O)C=C2C1=CC=C1[C@@]2(C)CC[C@@]2(C)[C@@H]3C[C@](C)(C(=O)NCCOCCOCCOCCOCC(=O)N[C@H](C(=O)N4C[C@H](O)C[C@H]4C(=O)N[C@@H](C)c4ccc(-c5scnc5C)cc4)C(C)(C)C)CC[C@]3(C)CC[C@]12C — duration of degradation (Nuclear receptor subfamily 4 group A member 1 (Nr4a1, Mus musculus, UniProt P12813); degrader; mouse, MC-38 tumour model, tumour; concentration not given): ≥ 4 days
C=C1C(=O)O[C@@H]2[C@H]3C(CO)=CC(=O)C3=C(C)C[C@H](O)[C@@H]12 — number of binding sites (Alpha-glucosidase MAL12 (MAL12, Saccharomyces cerevisiae S288c, UniProt P53341); fluorescence quenching; concentration not given, 310 K): 0.78
O=C1C[C@H](c2nc(-c3ccc(F)c4cn[nH]c34)no2)CCCN1c1ccc(F)cc1 (racemic) — forskolin-stimulated cAMP production (Cannabinoid receptor 1 (CNR1, Homo sapiens, UniProt P21554); CNR1-transfected cells; up to 30 µM, added: forskolin): no effect
COC(=O)c1ccc(CNC(=O)[C@@H]2C[C@@H](O)CN2C(=O)Cc2ccccc2)cc1 — binding enthalpy (ΔH) (VHL with Elongin B/C; isothermal titration calorimetry; concentration not given, 25 °C): -1.89 ± 0.04 kcal/mol
NC(=O)C1CCNC(=O)C(CCCNC(=O)c2cnccn2)NC(=O)C(CC2CCCCC2)NC(=O)C(CC=Cc2ccccc2)NC(=O)C=CC(=O)N1 (centres unmarked) — enrichment factor (Receptor tyrosine-protein kinase erbB-4 (ERBB4, Homo sapiens, UniProt Q15303); DNA-templated library selection; one selection round): 1.3
COc1ccc(-c2cc(C(F)(F)F)nc(S(=O)(=O)CCCC(=O)Nc3ccc(F)cc3F)n2)cc1OC — affinity ratio (Glucagon-like peptide 1 receptor (GLP1R, Homo sapiens, UniProt P43220); allosteric modulator; HEK-293T overexpressing receptor; baseline: GLP1R KB over SCTR KB): 15 to 200 fold
O=P(O)(O)O[C@@H]1[C@@H](O)[C@H](O)[C@H](O)[C@H](O)[C@H]1OP(=O)(O)O — Hill coefficient (Inositol 1,4,5-trisphosphate-gated calcium channel ITPR1 (Itpr1, Rattus norvegicus, UniProt P29994, del318-332/R504Q); Ca2+ release, agonist; permeabilized DT40 cells): 0.9 ± 0.2
CNc1ccccc1C(=O)O[C@H]1C[C@H](n2cnc3c(N)ncnc32)O[C@@H]1COP(=O)(O)OP(=O)(O)O — ∆G of ligand binding (Unconventional myosin-Va (Gallus gallus, UniProt Q02440, D297C/G292C/I296C/S293C/V295G); van't Hoff analysis; concentration not given, added: EDTA): -7 ± 0.1 kcal/mol
CC1=C(C)C(Oc2c(F)cc3c(C)cc(=O)oc3c2F)OC1=O (racemic) — kcat (D14 (Arabidopsis thaliana, UniProt Q9SQR3); substrate, pre-steady-state kinetics, measured: DiFMU release): 0.0005 ± 3.33e-05 s⁻¹
CCC(=O)N(C)c1ccc(Cl)c(Cl)c1 — fold activation (Aryl hydrocarbon receptor (AHR, Homo sapiens, UniProt P35869); reporter gene, agonist; 10 µM; baseline: vehicle): 4.94 fold
CC[C@H](C)[C@H](NC(=O)CNC(C)=O)C(=O)N[C@@H](CCCNC(=N)N)C(=O)N[C@@H](CCC(=O)O)C(=O)N[C@@H](C)C(=O)N[C@H](C(=O)N[C@@H](CC(C)C)C(=O)N[C@@H](CCCNC(=N)N)C(=O)N[C@@H](C)C(=O)N[C@@H](Cc1c[nH]c2ccccc12)C(=O)N[C@@H](CCC(=O)O)C(=O)N[C@@H](CCCNC(=N)N)C(=O)N[C@@H](CCCNC(=N)N)C(=O)N[C@@H](Cc1ccc(O)cc1)C(=O)NCC(=O)N[C@@H](Cc1ccccc1)C(=O)N1CCC[C@H]1C(=O)N[C@@H](CCCNC(=N)N)C(=O)N1CCC[C@H]1C(=O)N[C@@H](CC(C)C)C(=O)N[C@@H](CCCNC(=N)N)C(=O)N[C@@H](CO)C(=O)N[C@@H](CCC(=O)O)C(N)=O)[C@@H](C)O — ΔH (Antirepressor protein CarS (carS, Myxococcus xanthus, UniProt Q06911); ITC; pH 7.5, 25 °C): -8.46 ± 0.13 kcal/mol
N#C/C(=C\c1ccc(O)c(O)c1)C(=O)c1ccc(O)c(O)c1 — [3H]ryanodine binding (ryanodine receptor 2 (Sus scrofa, UniProt A0A5G2R1W3); inhibitor; cardiac SR vesicles; concentration not given, added: Ca2+ 30 µM): inhibited
Nc1ncnc2c1ncn2C1OC(COP(=O)(O)OP(=O)(O)OCC2OC(O)C(O)C2O)C(O)C1O (centres unmarked) — Hill coefficient (TRPM2 (Nematostella vectensis, UniProt A7T1N0); channel current, activator, inside-out patch clamp; global fit with epsilon analogue): 1.5 ± 0.1
CSCC[C@H](NC(=O)[C@H](CCC(N)=O)NC(=O)[C@H](Cc1ccccc1)NC(=O)CNC(=O)CNC(=O)[C@@H](NC(C)=O)[C@@H](C)O)C(=O)N[C@@H](C)C(=O)N[C@@H](CC(C)C)C(=O)N[C@H](C(=O)O)[C@@H](C)O — Ki ratio (Heat shock cognate 71 kDa protein, substrate-binding domain (HSPA8, Homo sapiens, UniProt P11142); binding, competition fluorescence polarization; baseline: Ac-NRLLLTG Ki over cpd Ki): ≥ 5 fold
CC(C)n1ccc2c(N3CCN(CCCCOc4ccc5c(c4)NC(=O)CC5)CC3)cccc21 — activity (D(2) dopamine receptor, long isoform (DRD2, Homo sapiens, UniProt P14416); β-arrestin2 recruitment, Tango; human cells; concentration not given): inactive
Cc1cc(C)c2sc(NC(=O)C3CCN(S(=O)(=O)c4ccc(F)cc4)CC3)nc2c1 — enzyme activity (N-acyl-phosphatidylethanolamine-hydrolyzing phospholipase D (Napepld, Mus musculus, UniProt Q8BH82); activator; RAW264.7; concentration not given, added: PED-A1): increased
Cc1ncsc1-c1ccc(CNC(=O)[C@@H]2C[C@@H](O)CN2C(=O)[C@@H](NC(=O)COCC(C)(COCCOCCOCCNC(=O)C[C@@H]2N=C(c3ccc(Cl)cc3)c3c(sc(C)c3C)-n3c(C)nnc32)COCCOCCOCCNC(=O)C[C@@H]2N=C(c3ccc(Cl)cc3)c3c(sc(C)c3C)-n3c(C)nnc32)C(C)(C)C)cc1 — degradation potency ratio (Bromodomain-containing protein 2 (BRD2, Homo sapiens, UniProt P25440); HEK293 HiBiT-BRD2 knock-in; baseline: compound over ARV-771): 80

For quick reference, copied from above:
O=C(c1cc2c(s1)CCCCC2)N1CCC(n2c(=O)[nH]c3ccccc32)CC1 — current ratio (Short transient receptor potential channel 6 (Trpc6, Mus musculus, UniProt Q61143, E672D); ion current, agonist, whole-cell patch clamp; E672D mutant; baseline: 3 µM over 1 µM): 4.8 ± 1.23
[3H]C([3H])([3H])c1cnccc1CN1C[C@@H](c2cc(F)c(F)c(F)c2)CC1=O — Bmax (Synaptic vesicle glycoprotein 2A (SV2A, Homo sapiens, UniProt Q7L0J3); radioligand binding, saturation binding; human control, pooled frontal cortex P1 fraction): 16.9 pmol/mg
